Results from different studies.
Compare with care: the assays were run in different laboratories. “And” joins repeats or separate records; there may be more than shown. ± gives the spread as reported.

CC(CCc1ccc(O)cc1)NCCc1ccc(O)c(O)c1 (centres unmarked) gave a dP/dtmax change of 1290 ± 149 (anaesthetised instrumented rat; iv infusion, 1 µg/kg/min, 15 min, unit not given; reference: baseline).
For Cc1n[nH]c2ccc(-c3cc(OC[C@@H](N)Cc4ccccc4)cnc3-c3ccoc3)cc12, “log2 fold change” read -0.246 (kinase binding, competitor, MIB/MS competition, measured: PKH3; Candida albicans cell lysate; 100 nM; reference: DMSO).
Cc1cc([C@H]2C[C@H]3[C@@H](C)SC(N)=N[C@@]3(c3ccc(F)cc3F)CO2)on1 has an Aβ42 level of 0.3 ng/g (measured: Aβx-42; Mus musculus wild-type, brain; subcutaneous, 50 mg/kg, 1 h).
Under “cold water VAS change”, N=C(N)NCCC[C@H](NC(=O)[C@H](CCCNC(=N)N)NC(=O)[C@H](CCCCN)NC(=O)[C@H](CCC(N)=O)NC(=O)[C@H](CCCCN)NC(=O)[C@H](Cc1ccc(O)cc1)NC(=O)[C@@H](N)CCCCN)C(=O)N[C@@H](CO)C(=O)N[C@@H](Cc1ccc(O)cc1)C(=O)N[C@@H](CCCCN)C(=O)O is recorded as -17.5 ± 19.2 mm (dentin hypersensitivity patients; 5 µg/tooth single, day 22, higher-VAS tooth; reference: baseline).
For CN(C)C(=O)c1cc2cnc(Nc3ccc(N4CCNCC4)cn3)nc2n1C1CCCC1, “GSEA enrichment score” read -0.262 (RNA-seq GSEA, measured: HALLMARK_APOPTOSIS; MB002 tumour; concentration not given, in vivo; reference: vehicle, direction not given).
With COc1ccc(-c2cncc(N[C@@H](C)c3cccc(NC(=O)c4cncc(C)c4)c3)n2)cc1OC the fold change was 0.6 (measured: rno-miR-100-5p; rat SU5416/hypoxia model, lung; dose not given; reference: SU5416/hypoxia vehicle).
NCC(=O)Nc1cncc(-c2nn3c(=O)cc(N4CCNCC4)nc3s2)c1 gave a median inhibition of 63.2% (ADP-induced platelet aggregation, light transmission aggregometry; human, stable CAD on aspirin, platelets ex vivo; subcutaneous, 0.075 mg/kg, 60 min post-dose, together with: ADP 20 µM).
With O=C(O)CNC(=O)Cc1ccccc1 the sarcomere length was 1.72 µm (ventricular cardiomyocytes, C57BL/6 mouse; dose not given, 0.78 s).
C[C@H]1O[C@@H](O[C@H]2CC[C@@]3(C)[C@@H](CC[C@]4(C)[C@@H]3C=C[C@]35OC[C@@]6(CCC(C)(C)C[C@H]63)[C@@H](O)C[C@]54C)[C@]2(C)CO)[C@H](O)[C@@H](O[C@@H]2O[C@H](CO)[C@@H](O)[C@H](O)[C@H]2O)[C@H]1O has an SIRT1 immunofluorescence of 35.3% and 33.9% and 47.1% (confocal immunostaining; mice, normal diet, liver; dose not given, high dose).
COc1nc(NCc2cn(-c3ccc(NC(=O)c4ccc(Cl)cc4)cc3)nn2)nc(OC)n1: “maximum non-toxic concentration” 1.5 ± 0.16 nM (MTT; normal colonocytes, rat; 72 h).
CN(C)C(=O)Oc1cccc([N+](C)(C)C)c1 gave a train-of-four ratio of 4.59 (neuromuscular block reversal; rat; dose not given, 1.5 (unit not given), together with: cisatracurium; reference: T1 twitch).
Cc1noc(C)c1-c1cc(C(O)(c2ccccn2)c2ccccn2)c2nc(C3CC3)[nH]c2c1 has a maximum inhibition of -8% (measured: CCR2 expression; human, peripheral blood; 3 mg, day 1, negative means increased expression).
CCN1[C@@H](C(=O)NC23CCC(C(=O)O)(CC2)CC3)[C@H](c2cccc(Cl)c2F)[C@]2(C(=O)Nc3cc(Cl)ccc32)C12CCCCC2: “median progression-free survival” 2.3 months (human, advanced solid tumours, TP53 mutant; dose not given).
Under “disease control rate”, CCN1CCN(Cc2ccc(Nc3ncc(F)c(-c4cc(F)c5nc6n(c5c4)[C@H](C)CCC6)n3)nc2)CC1 is recorded as 75% (human advanced solid tumours; 100 mg, phase Ia monotherapy RECIST 1.1).
With Cc1cnc(N2CC3(CCOCC3)C2)c(C(=O)Nc2ccc(C(=O)N3CCc4cc(C(=O)Nc5c(C)cccc5F)sc4-c4ccccc43)cc2)c1 the inhibition was 16% (measured: CRP; human RSV infection, plasma; dose not given, AUC, ITT-IS population; reference: placebo).
Under “log2 fold change”, N#Cc1ccn2c(-c3ccncc3)c(-c3ccc(F)cc3)nc2c1 is recorded as -0.157 (kinase binding, competitor, MIB/MS competition, measured: PKH3; Candida albicans cell lysate; 100 nM; reference: DMSO).
For Cc1cc(-c2nc(C(=O)Nc3cc4oc(N5CCOCC5)nc4nc3N3CC[C@@H](O)C3)co2)ccn1, “pP38 positive cells” read 11.8% (3D immunohistochemistry, CLARITY, measured: phospho-p38; mouse, intracranial A20 tumour; dose not given; reference: total cells).
CN[C@@H]1COc2c(S(=O)(=O)NC(=O)Nc3c4c(cc5c3CCC5)CCC4)cnn2C1 has an inhibition of 84.6% (measured: IL-18; human participants, whole blood ex vivo; 450 mg single dose, 24 h, IL-18, circulating, adjusted for, together with: LPS/ATP; reference: baseline).
For Cc1cc([C@H]2C[C@H]3[C@@H](CF)SC(N)=N[C@@]3(c3ccc(F)cc3F)CO2)on1, the Aβ42 level was 0.5 ng/g (measured: Aβx-42; Mus musculus wild-type, brain; subcutaneous, 100 mg/kg, 1 h).
OC(CCN1CCCCC1)(c1ccccc1)C1CC2C=CC1C2 (centres unmarked) — result for “EEG Beta3-power Fz-Cz”: 2 µV² (resting-state EEG; healthy elderly humans; oral, 4 mg, eyes open, LS mean).
For Cc1ccc([C@@H]2O[C@H](CO)[C@@H](O)[C@H](O)[C@H]2O)cc1Cc1ccc(-c2ccc(F)cc2)s1, “change, mean 24 h, plasma glucose” read -75 mg/dL (Japanese type 2 diabetes patients; 400 mg, day 16; reference: day 0).
The Vmax/Km of Oc1c(Br)cc(Oc2ccc(Br)cc2Br)cc1Br is reported as 116 ± 14.2 µL/min/mg (glucuronidation; human liver microsomes).
Cc1cn(-c2cc(NC(=O)c3ccc(C)c(Nc4nccc(-c5cccnc5)n4)c3)cc(C(F)(F)F)c2)cn1: “median difference in change” -1.36 (measured: phospho-tau 181; human, cerebrospinal fluid; dose not given, 6 months versus baseline, unit not given; reference: placebo).
N#Cc1ccc2c(CN3CCOCC3)cc(-c3ccc([C@H]4CCC(=O)N4)cc3)nc2c1: mRNA level “no effect” (no effect, measured: Tnf; BTBR ob/ob mice, female, diabetic wound model, wound tissue; dose not given, 21 days; reference: vehicle).
N#Cc1ccc2c(c1)[C@H]1CCCN(C(=O)c3ccc4[nH]cnc4c3)[C@H]1C2 — result for “change from baseline”: 17.7 mg/dL (measured: 2 h postprandial glucose; human, Phase II trial; oral, 240 mg once daily, day 28, adjusted mean, SE).
COc1cc(O)c(CC=C(C)C)c(O)c1C(=O)/C=C/c1ccc(O)cc1 — result for liver weight: “no effect” (male Tac:SW mice, conventional and germ-free; in high-fat diet, dose not given; reference: high-fat diet alone).
c1ccc(-c2n[nH]cc2-c2ccnc3ccccc23)nc1: “log2 fold change” 1.26 (kinase binding, competitor, MIB/MS competition, measured: YAK1; Candida albicans cell lysate; 1 µM; reference: DMSO).
For CC[C@@H](C)[C@@H](NC(=O)[C@@H](Cc1ccc(O)cc1)NC(=O)[C@H]1CCCN1C(=O)[C@@H](CCCNC(=N)N)NC(=O)[C@H](N)Cc1c[nH]cn1)C(=O)N[C@H](C)C(=O)N[C@H](Cc1c[nH]cn1)C(=O)N[C@H](CCCNC(=N)N)C(=O)N[C@@H](C(=O)N[C@H](Cc1ccc(O)cc1)C(=O)N[C@H](CO)C(=O)N[C@H](Cc1ccccc1)C(N)=O)C(C)C, “IFN-γ+ CD4+ T cell frequency” read 2.73% and 3.21% and 2.7% (ex vivo flow cytometry; GL261-Luc brain tumour mice, tumour; dose not given).
For CC#CC(=O)N[C@H]1CCCN(c2c(F)cc(C(N)=O)c3[nH]c(C)c(C)c23)C1, “change from baseline in serum IgM” read 60 mg/L (healthy volunteers, single ascending dose, serum; 1 mg, day 10).
CC1(C)CCC(c2ccc(Cl)cc2)=C(CN2CCN(c3ccc(C(=O)NS(=O)(=O)c4ccc(N[C@H](CCN5CCOCC5)CSc5ccccc5)c(S(=O)(=O)C(F)(F)F)c4)cc3)CC2)C1 has an EC50 of 142 nM (cell killing; canine lymph node CD3+ T cells, dog 39; 24 h).
CC(C)(C)c1cc(C(C)(C)C)c(NC(=O)c2c[nH]c3ccccc3c2=O)cc1O — result for “contraction amplitude change”: 3 fold (rat colon ex vivo; 10 µM, together with: β3 antagonist SR59230A; reference: vehicle).
The inhibition of Oc1ccc(Br)cc1C=NCCN1CCOCC1 is reported as 5.51% (superoxide scavenging; 40 µM).
CC(c1cc2ccccc2s1)N(O)C(N)=O (centres unmarked) has a TXB2 level of 746 ± 381 pg/mL (human blood; 3 µM, together with: A23187).
CC(C)NCC(O)c1ccc(O)c(O)c1 (centres unmarked) gave a sarcomere length of 1.55 µm (ventricular cardiomyocytes, C57BL/6 mouse; dose not given, 0.236 s).
For C[C@H]1C[C@H]2CSC(N)=N[C@@]2(c2nc(NC(=O)c3ccc(OC(F)F)cn3)cs2)CO1, “percent change from baseline” read -64% (measured: total Aβ; healthy adults, plasma; 275 mg once daily, day 1; reference: placebo).
With FC(F)(F)CN1CC(n2cc(Oc3ccn4nc(Cl)cc4n3)cn2)C1 the reduction was 54% (measured: brain C26:0 lyso-PC; Abcd1-/y mice; in feed, 100 mg/kg/day, 7 months).
For CCO, “change in SBP AUEC(0-4 h)” read -12.7 ± 27.1 mmHg·h (supine; concentration not given, 0 to 4 h; reference: baseline).
Under mRNA level, CCc1c(C)nc(-c2ccc(Cl)s2)nc1Nc1ccc(CC(=O)O)cc1 is recorded as “decreased” (measured: PPARα; C57BL/6J mice, high-fat diet, liver; intraperitoneal, 0.3 mg/kg daily, 60% fat diet 12 weeks, dosed last four; reference: vehicle).
Under “urine albumin/creatinine ratio”, Cc1cc(F)cc2c(CCC(=O)N[C@@H]3C(=O)NC[C@H]3O)c(-c3ccc(F)cc3)[nH]c12 is recorded as 1530 µg/mg and 103 µg/mg and 109 µg/mg and 261 µg/mg and 418 µg/mg and 91.9 µg/mg (APOL1 G2 mice, IFNγ-induced; 30 mg/kg twice daily, day 14).
For COc1cc2cc(-c3ccc(CC(=O)Nc4cc(C(C)(C)C(F)(F)F)no4)cn3)cnc2cc1OC, “disease control rate” read 10% (human RET-altered advanced solid tumours; 75 mg, phase I other tumours, RECIST 1.1).
With Cc1oncc1C(=O)Nc1ccc(C(F)(F)F)cc1 the DHO concentration was 567 ± 35.6 µM (measured: dihydroorotate; female CD-1 mice, pooled urine; oral, 30 mg/kg daily, 0-8 h after dose 1).
COC[C@@H](c1ccc(C(F)(F)F)cc1)N1CCN(C2(C)CCN(C(=O)c3c(C)ncnc3C)CC2)C[C@@H]1C — result for “change in HIV-1 RNA”: -1.18 log10 copies/mL (HIV-1 patients, plasma; 15 mg, week 2; reference: baseline).
N#Cc1ccc2c(c1)[C@H]1CCCN(C(=O)c3ccc4[nH]cnc4c3)[C@H]1C2 — result for “change in fasting glucose”: 3.6% (human, plasma; 240 mg, day 15, 360 h; reference: placebo and baseline).
For Cc1cc(Nc2ncc(Cl)c(Nc3ccccc3S(=O)(=O)C(C)C)n2)c(OC(C)C)cc1C1CCNCC1, the overall survival was 9.8 months (patients with advanced solid tumours; dose not given, together with: gemcitabine).
COc1cc(-c2ccccc2)ncc1C(=O)Nc1ccc2c(=O)[nH]c(-c3ccc(C(C)(C)O)cc3)nc2c1: “normalized enrichment score” 2.98 (RNA-seq GSEA, measured: FALLER_ENTEROCYTE_MOUSE; organoids, small intestinal, Apc Q1405X, mouse; dose not given, 3 days, knockout organoids; reference: DMSO, direction not given).
The metabolite level of C[C@@H](O)CCOC(=O)C[C@@H](C)O is reported as 7.72 ± 0.21 µmol/L (measured: Val; human, plasma; 60 min, log2-transformed values).
O=C(COc1ccc(Cl)cc1)NC12CC(c3nnc([C@H]4C[C@@H](OC(F)(F)F)C4)o3)(C1)C2 — result for “protein level change”: -80.1% (measured: ATF4; PBMC ex vivo stimulated, human ALS patients; 200 mg, D7 predose; reference: baseline).

Some of these lines once more:
NCC(=O)Nc1cncc(-c2nn3c(=O)cc(N4CCNCC4)nc3s2)c1 gave a median inhibition of 63.2% (ADP-induced platelet aggregation, light transmission aggregometry; human, stable CAD on aspirin, platelets ex vivo; subcutaneous, 0.075 mg/kg, 60 min post-dose, together with: ADP 20 µM).
Cc1cn(-c2cc(NC(=O)c3ccc(C)c(Nc4nccc(-c5cccnc5)n4)c3)cc(C(F)(F)F)c2)cn1: “median difference in change” -1.36 (measured: phospho-tau 181; human, cerebrospinal fluid; dose not given, 6 months versus baseline, unit not given; reference: placebo).
C[C@H]1O[C@@H](O[C@H]2CC[C@@]3(C)[C@@H](CC[C@]4(C)[C@@H]3C=C[C@]35OC[C@@]6(CCC(C)(C)C[C@H]63)[C@@H](O)C[C@]54C)[C@]2(C)CO)[C@H](O)[C@@H](O[C@@H]2O[C@H](CO)[C@@H](O)[C@H](O)[C@H]2O)[C@H]1O has an SIRT1 immunofluorescence of 35.3% and 33.9% and 47.1% (confocal immunostaining; mice, normal diet, liver; dose not given, high dose).
CCN1[C@@H](C(=O)NC23CCC(C(=O)O)(CC2)CC3)[C@H](c2cccc(Cl)c2F)[C@]2(C(=O)Nc3cc(Cl)ccc32)C12CCCCC2: “median progression-free survival” 2.3 months (human, advanced solid tumours, TP53 mutant; dose not given).
With Cc1oncc1C(=O)Nc1ccc(C(F)(F)F)cc1 the DHO concentration was 567 ± 35.6 µM (measured: dihydroorotate; female CD-1 mice, pooled urine; oral, 30 mg/kg daily, 0-8 h after dose 1).
For Cc1cc(-c2nc(C(=O)Nc3cc4oc(N5CCOCC5)nc4nc3N3CC[C@@H](O)C3)co2)ccn1, “pP38 positive cells” read 11.8% (3D immunohistochemistry, CLARITY, measured: phospho-p38; mouse, intracranial A20 tumour; dose not given; reference: total cells).
